Experimental data from different studies.
Each line is one published result; not all experiments were run side by side. ± marks the error that the study gave.

| SMILES | target or system | test | test system | conditions | how to read | quantity | value |
| --- | --- | --- | --- | --- | --- | --- | --- |
| COC1OC(C)C(OC2OC(C)C(OS(=O)(=O)O)C(OC3OC(C)C(OC4OC(C)C(OS(=O)(=O)O)C(OC5OC(C)C(OC6OC(C)C(OS(=O)(=O)O)C(OS(=O)(=O)O)C6O)C(OS(=O)(=O)O)C5O)C4O)C(OS(=O)(=O)O)C3O)C2O)C(OS(=O)(=O)O)C1O (stereo not shown) |  |  | human plasma | 128 µg/mL |  | prothrombin time | 15.7 ± 0.7 s |
| C[n+]1cccc2cc(/C=N/NC(=O)c3cncc(C(=O)N/N=C/c4ccc5c(ccc[n+]5C)c4)n3)ccc21 | hp2 hairpin duplex DNA | FRET melting |  | 1 µM |  | ΔTm | 1.1 °C |
| C=CC(=O)Nc1cccc(Cn2ncc3cnc(Nc4cnn(CCOC)c4)nc32)c1 | human ERK1 | KINOMEscan |  | 100 nM | reference: control | binding | 78% |
| O=C(N/N=C/c1cc[n+](CC2CC2)c2ccccc12)c1cccc(C(=O)N/N=C/c2cc[n+](CC3CC3)c3ccccc23)n1 | MYC parallel G4 DNA | FRET melting |  | 1 µM, DNA 0.2 µM, with: duplex DNA competitor 10 µM |  | ΔTm | 14 ± 0.3 °C |
| CCc1nnc(NC(=O)c2cccc(C(=O)Nc3nnc(CC)s3)n2)s1 | Mus musculus | gene silencing, high-content imaging | LDR reporter GFP cells | 30 h, confirmation, mean of two runs |  | Emax | 96% |
| C[n+]1ccc(/C=N/NC(=O)c2cncc(C(=O)N/N=C/c3cc[n+](C)c4ccccc34)n2)c2ccccc21 | MYC parallel G4 DNA | FRET melting |  | 1 µM, DNA 0.2 µM, with: duplex DNA competitor 10 µM |  | ΔTm | 11.4 ± 0.5 °C |
| Cc1ncsc1-c1ccc(C(C)NC(=O)C2CC(O)CN2C(=O)C(NC(=O)CCCCCCCCCCN2CCCC(Nc3ncc(Cl)c(Nc4ccccc4S(=O)(=O)C(C)C)n3)C2)C(C)(C)C)cc1 (stereo not shown) | 22Rv1 | RNA-seq, refers to: SGO1-AS1 |  | concentration not given | reference: DMSO | log2 fold change | -1.01 |
| COc1nc(Nc2nc(O)c3ccccc3n2)nc2ccc(C)cc12 | Mus musculus | gene silencing, high-content imaging | LDR reporter GFP cells | confirmation, mean of two runs |  | EC50 | 7.94 µM |
| C=CC(=O)N1[C@@H](c2ccc3c(c2)OCO3)c2[nH]c3ccccc3c2C[C@H]1C(=O)N1CCN(C)CC1 | human cyclin E1 wild type-3xFLAG:CDK2 | co-IP with TMT proteomics, refers to: THRAP3 |  | concentration not given, Q9Y2W1 | reference: wild type DMSO | relative co-enrichment | 105% |
| Nc1ncc(-c2cc(-c3cnn(CC(F)(F)F)c3)ncc2F)nc1C(=O)NC1CNCC(F)C1 (stereo not shown) | PIP5K1C | KINOMEscan |  | 1 µM | reference: DMSO control | remaining binding | 74% |
| CNS(=O)(=O)Nc1nccc(Cc2c(C)c3ccc(Oc4ncccc4F)cc3oc2=O)c1F | COV434 | cell viability |  | 7 days |  | IC50 | > 1 µM |
| CCCC(=O)N1CCN(c2ccc(NC(=O)c3ccc([N+](=O)[O-])o3)cc2Cl)CC1 | Mus musculus | gene silencing, high-content imaging | LDR reporter GFP cells | 30 h, retest run 1 |  | Emax | 18% |
| C[n+]1ccc(/C=N/NC(=O)c2cccc(C(=O)N/N=C/c3cc[n+](C)c4ccccc34)n2)c2ccccc21 | MYC promoter parallel G-quadruplex DNA | UV melting |  | 6 µM, 1 mM potassium, with: DNA 3 µM |  | delta Tm | 27.5 °C |
| CN1CCCNC(=O)c2cccc(c2)C(=O)NCCCN(C)CCCNc2cccc3c2C(=O)c2cccc(c2C3=O)NCCC1 | SAS | RNA-seq, refers to: KMT2E-AS1 mRNA |  | 1 µM, 6 h | reference: untreated cells | log2 fold change | -1.08 |
| COC1CN([C@H]2CC[C@H]([C@@]3(C)Oc4c(Cl)cc(C(=O)NCc5c(SC)cc(C)[nH]c5=O)c(C)c4O3)CC2)C1 |  | RNA-seq, refers to: PLEK2 mouse homolog | mouse, HT-1376 xenograft, whole blood | dose not given | reference: vehicle | log2 fold change | 1.73 |
| C[n+]1cc(/C=N/NC(=O)c2ccc3ccc(C(=O)N/N=C/c4cc5ccccc5[n+](C)c4)nc3n2)cc2ccccc21 | MYC parallel G4 DNA | FRET melting |  | 1 µM, DNA 0.2 µM, with: duplex DNA competitor 10 µM |  | ΔTm | 6.7 ± 0.1 °C |

Some of these lines once more:
| SMILES | target or system | test | test system | conditions | how to read | quantity | value |
| --- | --- | --- | --- | --- | --- | --- | --- |
| CNS(=O)(=O)Nc1nccc(Cc2c(C)c3ccc(Oc4ncccc4F)cc3oc2=O)c1F | COV434 | cell viability |  | 7 days |  | IC50 | > 1 µM |
